Experimental data from different studies.
Several values in a cell are separate wells, animals, samples, runs or records. ± marks the error that the study gave.

For CC(=O)N[C@H](CCCCN)C(=O)N[C@H](CC(C)C)C(=O)N[C@H](CCCCN)C(=O)N[C@H](CO)C(=O)N[C@H](CC(C)C)C(=O)N[C@H](CC(C)C)C(=O)N[C@H](CCCCN)C(=O)N[C@@H](C(=O)N[C@H](CC(C)C)C(=O)N[C@H](CO)C(=O)N[C@H](CCCCN)C(=O)N[C@H](C)C(=O)N[C@H](CCCCN)C(=O)N[C@H](CCCCN)C(=O)N[C@H](CCCCN)C(=O)N[C@H](CC(C)C)C(=O)N[C@H](CC(C)C)C(=O)N[C@H](CCCCN)C(=O)N[C@@H](C(=O)N[C@H](C)C(=O)N[C@H](CC(C)C)C(=O)N[C@H](CCCCN)C(=O)N[C@H](C)C(=O)N[C@H](CC(C)C)C(=O)N[C@H](CO)C(=O)N[C@H](CCCCN)C(N)=O)[C@H](C)O)[C@H](C)O, the helical content was 100% (circular dichroism; 50% trifluoroethanol; 5 °C).
O=C(O)c1cccc(S(=O)(=O)Nc2ccccc2)c1: “AUC(0-inf) metabolic ratio” 0.825 (human, severe liver dysfunction, plasma; intravenous, 400 mg/m^2 belinostat, cycle 1 day -7, geometric mean; relative to: metabolite over belinostat).
The AUC(0-last) of CC[C@H](C)[C@H](NC(=O)[C@H](CC(C)C)NC(=O)[C@H](Cc1c[nH]c2ccccc12)NC(=O)[C@H](C)NC(=O)[C@@H](NC(=O)[C@H](Cc1ccccc1)NC(=O)[C@H](CC(=O)O)NC(=O)[C@H](CCCNC(=N)N)NC(=O)[C@H](C)NC(=O)[C@H](C)NC(=O)[C@H](CC(C)C)NC(=O)[C@H](C)NC(=O)[C@H](CC(=O)O)NC(=O)[C@H](CC(C)C)NC(=O)[C@@H](NC(=O)[C@@H](NC(=O)[C@H](C)NC(=O)[C@H](CC(C)C)NC(=O)[C@H](CCC(=O)O)NC(=O)[C@H](CO)NC(=O)[C@H](CO)NC(=O)[C@H](Cc1ccccc1)NC(=O)[C@@H](NC(=O)CNC(=O)[C@H](CCC(=O)O)NC(=O)CNC(=O)[C@@H](N)Cc1cnc[nH]1)[C@@H](C)O)[C@@H](C)O)[C@@H](C)CC)[C@@H](C)CC)C(=O)N[C@@H](C)C(=O)N[C@H](C(=O)N[C@@H](CCCCN)C(=O)N[C@H](C(=O)N[C@H](C(=O)N[C@@H](CC(=O)O)C(=O)N[C@@H](CCCCN)C(=O)N[C@@H](CCCCN)C(=O)N[C@@H](CCCCN)C(=O)N[C@@H](CCCCN)C(=O)N[C@@H](CCCCN)C(=O)N[C@@H](CCCCN)C(N)=O)[C@@H](C)O)[C@@H](C)CC)[C@@H](C)O is reported as 0.281 µM·h (healthy humans, plasma; subcutaneous, 10 mg once weekly, 6 doses, day 36, geometric mean).
Cc1nn(-c2ccc(S(=O)(=O)N[C@H](CO)CC(C)C)cc2)c2nn3nnnc3nc12 gave a necrotic cells of 21.5 ± 3.56% (PC-3; PI/Hoechst staining; 1 µM, 24 h).
O=C(O)C1CN(Cc2ccc(-c3noc(-c4ccc(OCC[18F])c(C(F)(F)F)c4)n3)cc2)C1 has a tissue uptake of 0.018 ± 0.002 %ID/g (male Sprague-Dawley rat, brain; intravenous, 30 min).
With O=C(NCCCN(CCCCN(CCCNC(=O)c1cccc(=O)n1[O-])C(=O)c1cccc(=O)n1[O-])C(=O)c1cccc(=O)n1[O-])c1cccc(=O)n1[O-].[89Zr+4] the intact complex was 90.5 ± 3.8% (radio-TLC; PBS; 5 d, pH 7.4, 37 °C, with: Fe^3+ 10-fold excess).
With [64Cu+2].c1cnc(CNCc2ccc(CN3CCCN4CCNCCCN(CC4)CC3)cc2)nc1 the tissue uptake was 31.5 ± 31 %ID/g (CXCR4; NOD/SCID mouse, U87 xenografts, small intestine; 90 min, with: AMD3465 25 mg/kg sc).
With [11CH3]N1CCN(CCCOc2ccc(=O)n(-c3ccc(Cl)c(Cl)c3)n2)CC1 the uptake was 5.1 ± 0.68 %ID/cc (PET-CT; BALB/c mouse male, heart; intravenous, dose not given, 5 min).
With NS(=O)(=O)Nc1ncnc(OCCOc2ncc(Br)cn2)c1-c1ccc(Br)cc1 the Km was 3.8 ± 1 µM (refers to: compound formation; Sprague-Dawley rat female, liver microsomes; 1500 mg/kg daily, 4 weeks).
For COc1cccc([O-])c1C=NCCCN(C)CCN(C)CCCN=Cc1c([O-])cccc1OC.[67Ga+3], “tissue uptake ratio” read 0.85 ± 0.22 (rat; intravenous, 1 min; relative to: heart over liver).
Cc1nc(C)c(C=[N+]([O-])C(C)(C)C)nc1C has a brain concentration of about 100 µM (Sprague-Dawley rat both sexes, brain; oral, 45 mg/kg, 30 min).
For COc1ccc(-c2csc(N/N=C(\C)c3cc(O)cc(O)c3)n2)cc1, “concentration after storage” read 1030 ng/mL (LC-MS/MS; rat plasma; 1000 ng/mL, 45 days, long-term storage at -20 °C).
COC(=O)c1ccc(CCc2cc3cc4nc(c(OC)c5[nH]c(cc6nc(cc2[nH]3)CC6(C)C)cc5CCCNC(=O)OC(C)(C)C)C(=O)C4(C)C)cc1: “singlet excited-state lifetime” 3.28 ns (DMF; room temperature).
For [64Cu+2].c1ccc(CNCc2ccc(CN3CCCN4CCNCCCN(CC4)CC3)cc2)nc1, the tissue uptake was 3.95 ± 0.61 %ID/g (CXCR4; NOD/SCID mouse, U87 and U87-stb-CXCR4 xenografts, spleen; iv, 90 min, ex vivo, with: AMD3465 25 mg/kg sc before tracer).
For Cc1cc(-c2ccc(NC(=O)[C@H](CCCCNC(=O)CCOCCOCCC(=O)N[C@H](Cc3ccccc3)C(=O)N[C@H]3CSSC[C@@H](C(=O)N[C@H](C(=O)O)[C@@H](C)O)NC(=O)[C@H]([C@@H](C)O)NC(=O)[C@H](CCCCN)NC(=O)[C@@H](Cc4c[nH]c5ccccc45)NC(=O)[C@H](Cc4ccc(O)cc4)NC3=O)NC(=O)CN3CCN(CC(=O)O)CCN(CC(=O)O)CCN(CC(=O)O)CC3)c(C)c2)ccc1N=Nc1ccc2c(S(=O)(=O)O)cc(S(=O)(=O)O)c(N)c2c1O [lutetium-177 labelled], the residence time was 0.98 ± 0.81 h (patients with metastatic NETs, all metastatic lesions).
The decline of CCCCCCCCCCCCCCCC(=O)OC[C@H]1O[C@@H](n2cc(F)c(N)nc2=O)CS1 is reported as 92% (rabbit plasma; 1 µM, 90 min, 37 °C; relative to: 0 min).
The Cmax of CN(C)c1cc(CN2CCCCC2)c(O)c2c1C[C@H]1C[C@H]3[C@H](N(C)C)C(O)=C(C(N)=O)C(=O)[C@@]3(O)C(O)=C1C2=O is reported as 210 ng/mL (cynomolgus monkey, plasma; oral, 5 mg/kg).
NC12CNCCNCC(NCc3ccc(CNC(=O)CCCC(=O)NCc4ccc(-c5nncnn5)cc4)cc3)(CNCCNC1)CNCCNC2.[64Cu+2] — result for “mean absorbed dose”: 0.0258 rad/mCi (OLINDA dosimetry; red marrow; pretargeting, 120-h interval).
For [2H]C([2H])([2H])NC(=O)c1ccc(N2C(=S)N(c3ccc(C#N)c(C(F)(F)F)c3)C(=O)C2(C)C)cc1F, the Vd/F was 48.2 ± 14 L (human, male; oral, 160 mg, single dose, fasted).
For CCCC[C@H](NC(=O)CNC(=O)CNC(=O)CN1CCN(CC(=O)O)CCN(CC(=O)O)CC1)C(=O)N[C@H]1CC(=O)NCCCC[C@@H](C(N)=O)NC(=O)[C@H](Cc2c[nH]c3ccccc23)NC(=O)[C@H](CCCNC(=N)N)NC(=O)[C@@H](Cc2ccccc2)NC(=O)[C@H](Cc2c[nH]cn2)NC1=O [copper-64 labelled], the uptake ratio was 18 (female C57 mouse, B16/F1 melanoma; intravenous, 0.037 MBq, 2 h; relative to: tumour over liver).
Cn1c(=O)oc2ccc(-c3ccc(CC(C#N)NC(=O)C4CNCCCO4)c(F)c3)cc21 (stereo not shown): “subjects with TEAE” 0% (refers to: macule; human; 40 mg single dose, fasted).
With C=CC(=O)Nc1cc(Nc2nccc(-c3cn(C4CC4)c4ccccc34)n2)c(OC)cc1N(C)CCNC the excreted amount was 1.2% (radio-HPLC, co-eluting peaks pooled; human male, urine; oral, 110 mg, 0 to 96 h, sample holds 4.16% dose; relative to: dose).
The intact compound of NC(=O)[C@H](Cc1ccccc1)N[11C](=O)OCc1ccccc1 is reported as 97.6% (male Wistar rat, spinal cord supernatant; intravenous, 32.8 MBq, 15 min).
For N=C(N)c1ccc(-c2ccc(-c3cccs3)o2)nc1, the viability was 92.5 ± 8% (Salmonella typhimurium; liquid broth OD; TA1535; 50 µM, 15 h; relative to: growth).
With C=CCC1=C[C@]2(C[C@H](O)C(C)(C)O2)C2=C(C[C@@H]3C[C@@H]4[C@@H](C[C@]3(C)O2)C(=C)CCCC4(C)C)C1=O the selectivity index was 4.3 (coxsackievirus B3; cytopathic effect; Vero, Nancy; relative to: CC50 over IC50).
O=C([O-])CN1CCN(CC(=O)[O-])CCN(CC(=O)c2ccc(-c3ccc(OCC(=O)O)cc3)cc2)CCN(CC(=O)[O-])CC1.[Gd+3] — result for “activation enthalpy of water exchange”: 10 kcal/mol (concentration not given, TSAP isomer).
O=C([O-])c1cccc(CN(CCN(Cc2cn(Cc3ccccc3)nn2)Cc2cccc(C(=O)[O-])n2)Cc2cn(Cc3ccccc3)nn2)n1.[64Cu+2] has a tracer uptake of ~8 %ID/g and 8.1 %ID/g (mouse, liver; intravenous, 24 h).
With CC[C@H](C)[C@H](NC(=O)[C@H](N)Cc1ccc(O)cc1)C(=O)N[C@H]1CSSC[C@@H](C(=O)N(C)[C@H](C(N)=O)[C@@H](C)CC)NC(=O)[C@H](CCCNC(=N)N)NC(=O)[C@H](Cc2c[nH]cn2)NC(=O)[C@H](C)NC(=O)CN(C)C(=O)[C@H](Cc2c[nH]c3ccccc23)NC(=O)[C@H](CC(=O)O)NC(=O)[C@H](CCC(N)=O)NC(=O)[C@H](Cc2cn(C)c3ccccc23)NC(=O)[C@H](C(C)C)NC1=O the recovery was 99.4 ± 0.3% (UPLC-ESI-MS; human plasma; 3.58 µg/mL, 48 h, 4 °C, autosampler after SPE).
With CC(C)(C)NCC(SS(=O)(=O)O)c1ccccc1 (stereo not shown) the metabolised fraction was about 100% (Swiss Webster mouse, female, hepatocytes; 750 µM, 30 min, pH 7.4, expected value).
With CC(=O)N([O-])CCCCCNC(=O)CCC(=O)N([O-])CCCCCNC(=O)CCC(=O)N([O-])CCCCCN.[89Zr+4] the intact complex was 96.8 ± 1.3% (radio-iTLC; aqueous buffer; 1 h, pH 8.0, 37 °C, EDTA challenge, with: 100-fold excess EDTA).
With N=C(N)NCCC[C@@H]1NC(=O)[C@H](Cc2c[nH]c3ccccc23)NC(=O)[C@@H](CC2CCCCC2)NC(=O)[C@@H]2CCCN2C(=O)[C@@H](NC(=O)CCc2ccccc2)CCCNC1=O the absorption half-life was 17.7 min (C57BL/6J mice, brain; subcutaneous, 1 mg/kg).
With O=C(Cc1ccc2ccccc2c1)N[C@H](Cc1ccccc1)C(=O)N[C@H](Cc1ccccc1)C(=O)N[C@H](Cc1ccc(OP(=O)(O)O)cc1)C(=O)N[C@H](Cc1ccc(OP(=O)(O)O)cc1)C(=O)O the gelation time was 3.7 h (substrate, rheology; hydrogel; 0.5 wt%, with: alkaline phosphatase 0.05 U/mL).
With COc1cc(NC(C)=O)c2c(c1O)-c1c(OC)c(OC)cc3c1C(C2)N(C)CC3 (stereo not shown) the remaining compound was 104 ± 5.3% (rat lung homogenate; 50 µg/mL, time not given, three freeze-thaw cycles).
For CCCC[C@H](NC(=O)CNC(=O)CNC(=O)CN1CCN(CC(=O)O)CCN(CC(=O)O)CC1)C(=O)N[C@H]1CC(=O)NCCCC[C@@H](C(N)=O)NC(=O)[C@H](Cc2c[nH]c3ccccc23)NC(=O)[C@H](CCCNC(=N)N)NC(=O)[C@@H](Cc2ccccc2)NC(=O)[C@H](Cc2c[nH]cn2)NC1=O [gallium-67 labelled], “tumour to tissue ratio” read 2.9 (female C57 mice, B16/F1 melanoma; intravenous, 0.037 MBq, 24 h; relative to: tumour over kidney).
For Cc1ccc(OCC(=O)N(Cc2cccs2)c2ccn[nH]2)cc1, the Tmax was 45 min (male Sprague-Dawley rat, plasma; oral, 10 mg/kg, single dose).
With NC[C@@H](C(=O)Nc1ccc(-c2cn[nH]c2)cc1)c1ccccc1 the chemosis score was 0 (OECD 405 eye irritation; New Zealand White rabbit, eye; topical, 0.1%, 8 h (day 1), scale 0 to 4; direction not given).
With [11CH3]c1ccc2nc(C3CCC3)n(-c3ccc4[nH]ncc4c3)c2n1 the uptake ratio was 10.5 (ddY mouse, lungs; relative to: 1 min over 60 min).

Some of these lines once more:
Cc1nn(-c2ccc(S(=O)(=O)N[C@H](CO)CC(C)C)cc2)c2nn3nnnc3nc12 gave a necrotic cells of 21.5 ± 3.56% (PC-3; PI/Hoechst staining; 1 µM, 24 h).
O=C(O)C1CN(Cc2ccc(-c3noc(-c4ccc(OCC[18F])c(C(F)(F)F)c4)n3)cc2)C1 has a tissue uptake of 0.018 ± 0.002 %ID/g (male Sprague-Dawley rat, brain; intravenous, 30 min).
With O=C(NCCCN(CCCCN(CCCNC(=O)c1cccc(=O)n1[O-])C(=O)c1cccc(=O)n1[O-])C(=O)c1cccc(=O)n1[O-])c1cccc(=O)n1[O-].[89Zr+4] the intact complex was 90.5 ± 3.8% (radio-TLC; PBS; 5 d, pH 7.4, 37 °C, with: Fe^3+ 10-fold excess).
With [64Cu+2].c1cnc(CNCc2ccc(CN3CCCN4CCNCCCN(CC4)CC3)cc2)nc1 the tissue uptake was 31.5 ± 31 %ID/g (CXCR4; NOD/SCID mouse, U87 xenografts, small intestine; 90 min, with: AMD3465 25 mg/kg sc).
